Assay results from different studies.
Protocols differ between the studies behind these lines. Values joined by “and” are separate records of one study, mostly repeats; a detail may differ.
Target: Protein-tyrosine kinase 6 (PTK6, Homo sapiens, UniProt Q13882)
UniProt Q13882, sequence (whole entry, looked up): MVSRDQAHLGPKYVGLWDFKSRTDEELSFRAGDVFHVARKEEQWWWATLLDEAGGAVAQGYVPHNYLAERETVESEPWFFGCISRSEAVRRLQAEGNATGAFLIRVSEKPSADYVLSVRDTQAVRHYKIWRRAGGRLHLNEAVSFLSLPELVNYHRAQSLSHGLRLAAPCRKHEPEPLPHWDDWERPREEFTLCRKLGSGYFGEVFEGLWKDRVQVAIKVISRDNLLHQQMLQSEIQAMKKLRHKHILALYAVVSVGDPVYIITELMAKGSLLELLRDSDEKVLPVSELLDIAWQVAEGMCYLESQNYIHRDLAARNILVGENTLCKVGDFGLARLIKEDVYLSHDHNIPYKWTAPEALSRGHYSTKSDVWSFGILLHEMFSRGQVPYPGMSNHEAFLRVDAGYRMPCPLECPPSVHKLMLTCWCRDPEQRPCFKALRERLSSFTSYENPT

SMILES | test | conditions | scale | quantity | result
O=C(Nc1ccc(Oc2ncnc3[nH]cc(-c4ccccc4)c23)c(F)c1)c1c2n(n(-c3cc(F)ccc3F)c1=O)CCCC2 | enzyme activity, inhibitor | 0.5 µM |  | inhibition | 14%
Nc1ncc2c(n1)-c1c([nH]c3ccc(C4=CCOCC4)cc13)CCC2 | binding, competition with immobilised ligand | 1 µM |  | remaining binding | 100%
C=CC(=O)Nc1cccc(-c2cnc3[nH]cc(C(=O)NC(C)(C)C)c3n2)c1 | kinase activity | 0.1 µM |  | inhibition | 0% and 3%
Cc1cnc2nc1Nc1cccc(c1)COC/C=C/COCc1cc(ccc1OCCN1CCOCC1)N2 | binding, competition with immobilised ligand | 0.1 µM |  | remaining binding | 100%
COc1ccc(NC(=O)Nc2ccc3c(c2)C(=O)N(C(C)CO)CC(C)C(CN(C)Cc2ccc4c(c2)OCO4)O3)cc1 (stereo not shown) | kinase activity, KinaseProfiler | 0.03 µM, species human | relative to: control | remaining activity | 106%
CC(C)=CC1OC(C)(C)C2C=C3C(=O)C(Cl)=CC(O)C3C3C(O)C4OC4C(=O)C132 (stereo not shown) | cell-free assay, competition with immobilised ligand | 10 µM |  | remaining binding | 96%
Nc1ncc(-c2cc(-c3cnn(CC(F)(F)F)c3)ncc2F)nc1C(=O)NC1CNCC(F)C1 (stereo not shown) | enzyme activity | 1 µM | relative to: DMSO control | remaining activity | 76.8%
Cc1cccc(O[C@H]2CCC[C@@H](C(C)CNCc3ccncc3)C2)c1 (relative stereo) | enzyme activity, inhibitor | 10 µM |  | inhibition | -10%
Cc1nc2c(F)cc(-c3nc(Nc4ccc(CNC(=O)CCCCCCC(=O)NO)cc4)ncc3F)cc2n1C(C)C | enzyme activity, inhibitor | 1 µM |  | inhibition | 49%
NC(=O)C[C@H]1CCc2sc3ncnc(O[C@H]4CC[C@H](N5CCOCC5)CC4)c3c21 | enzyme activity, inhibitor | 10 µM |  | inhibition | 22%
CCN1CCN(Cc2ccc(C(=O)Nc3ccc(C)c(NCc4cnc5[nH]ccc5c4OC)c3)cc2C(F)(F)F)CC1 | binding, competition with immobilised ligand | 1 µM |  | remaining binding | 85%
C=CC(=O)N1CCc2ccc(-n3c(=O)ccc4cnc5ccc(-c6cnn(C)c6)cc5c43)cc21 | KINOMEscan | 1 µM | relative to: DMSO control | remaining binding | 97%
COc1cc(Nc2nccc(-c3cnn4nc(OC)ccc34)n2)cc(C(F)(F)F)c1 | binding, competition with immobilised ligand | 1 µM |  | remaining binding | 98%
COc1c(OCCCN2CCOCC2)ccc2c1N=C(NC(=O)c1cnc(N)nc1)N1CCN=C21 | kinase activity, inhibitor | 1 µM | relative to: untreated control | remaining activity | 112%
O=C=[N][Ru-4]123([n]4c5ccc(O)cc5c5c6c(c7cc(F)c[n+]1c7c54)C(=O)NC6=O)[S+]1CC[S+]2CC[S+]3CC1 (stereo not shown) | enzyme activity | 100 nM, human enzyme, with: 10 µM ATP | relative to: untreated | remaining activity | 114%
C[C@H]1CN(C(=O)c2cn(-c3ccnc(N)n3)c3cc(C#CC4(O)CCCCC4)ccc23)CCN1 | enzyme activity, inhibitor, FRET | 1 µM |  | inhibition | -2%

A few entries again:
SMILES | test | conditions | scale | quantity | result
C[C@H]1CN(C(=O)c2cn(-c3ccnc(N)n3)c3cc(C#CC4(O)CCCCC4)ccc23)CCN1 | enzyme activity, inhibitor, FRET | 1 µM |  | inhibition | -2%
